Assay results pooled from the literature.
Numbered parts are unrelated; each lists some results of a single study.

Study 1 — technique: protein-binding microarray; molecule type: double-stranded DNA, one strand shown; matrix: in vitro; concentration: 250 nM; setting: 60-bp whole probe; together with: salmon DNA 0.4 mg/ml; relative to: random background probes; direction: higher = stronger binding; constant ends, left off below: GCCTAGCAC … GTCTTGATTCGCTTGACGCTGCTG
Target: Interferon regulatory factor 7, full length, phosphomimetic (IRF7, Homo sapiens, UniProt Q92985, residues 1-503, S101K/S471D/S472D/S475D/S476D/S477D/S483D/S484D/S487D)
Target sequence (chain): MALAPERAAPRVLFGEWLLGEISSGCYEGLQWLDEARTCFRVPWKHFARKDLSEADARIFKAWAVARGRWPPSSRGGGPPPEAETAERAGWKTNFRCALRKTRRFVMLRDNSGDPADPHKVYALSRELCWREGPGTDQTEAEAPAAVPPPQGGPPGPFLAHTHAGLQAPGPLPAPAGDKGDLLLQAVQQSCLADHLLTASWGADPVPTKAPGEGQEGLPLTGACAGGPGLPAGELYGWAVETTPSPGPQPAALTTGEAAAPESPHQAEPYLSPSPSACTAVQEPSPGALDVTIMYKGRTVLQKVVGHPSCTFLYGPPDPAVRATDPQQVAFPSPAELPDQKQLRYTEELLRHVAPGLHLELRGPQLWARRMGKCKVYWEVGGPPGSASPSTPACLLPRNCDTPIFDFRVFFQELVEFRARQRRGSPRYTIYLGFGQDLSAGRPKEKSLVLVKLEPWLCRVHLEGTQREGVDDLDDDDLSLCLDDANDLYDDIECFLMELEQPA
Sequence	log fluorescence [z-score]
GGGGCTTGGGAGAGGCATCCGTGCTAG	-0.788
TTAGGTTTCTGTTCCGGTTAGTGCTAG	6.5
TATCATTTAATTATATGGCTGTGCTAG	-0.0395
TTAGATATCAGTTTCGATCAGTGCTAG	3.93
GACGGACTGGACAATGGGGACGTGCTA	-0.768
TTAGCTTTCGGGTTTCGATTAGTGCTA	7.38
GTTTTTCTCCTATTTAAGACGTGCTAG	4.4
TCAGTTTTCAGTTTCACACTGTGCTAG	4.14
GACGGTCTCGGGTTCGGGACGTGCTAG	2.4
GACGGACTGGGGCCTGGGGACGTGCTA	-0.682

Study 2 — technique: protein binding microarray; molecule type: double-stranded DNA, one strand shown; matrix: in vitro; concentration: not given; relative to: not given; direction: higher = stronger binding
Target: Histone acetyltransferase KAT6A, winged helix 1, GST fusion (KAT6A, Homo sapiens, UniProt Q92794, residues 1-85)
Setting: 8-mer, flanks averaged, mean of 2 arrays, mostly near background
Construct (chain): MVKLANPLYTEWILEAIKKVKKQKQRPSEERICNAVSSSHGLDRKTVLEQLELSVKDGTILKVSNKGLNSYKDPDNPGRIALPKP
Sequence	E-score
GCTCTACC	0.00349
CCGAGAGA	-0.0924
CGCATAGA	0.0417
AGATTCTG	-0.362
CGAGGACC	0.0971
ATGGATCG	0.138
CTGAAACA	-0.172
CTAACCAA	-0.178
CACTAAGG	-0.0638
GAACTTCA	-0.169
AAGTCGCA	0.0832
CGATCGCG	0.368

Study 3 — technique: competition protein-binding microarray; molecule type: double-stranded DNA, one strand shown; matrix: in vitro; concentration: 2 µM; together with: Pho4 competitor, 0.05 µM; direction: higher = stronger binding; constant ends, left off below: … GTCTTGATTCGCTTGACGCTGCTG
Target: Centromere-binding protein 1, full length, His-tagged (CBF1, Saccharomyces cerevisiae, UniProt P17106, residues 1-351)
UniProt P17106, sequence (whole entry, looked up): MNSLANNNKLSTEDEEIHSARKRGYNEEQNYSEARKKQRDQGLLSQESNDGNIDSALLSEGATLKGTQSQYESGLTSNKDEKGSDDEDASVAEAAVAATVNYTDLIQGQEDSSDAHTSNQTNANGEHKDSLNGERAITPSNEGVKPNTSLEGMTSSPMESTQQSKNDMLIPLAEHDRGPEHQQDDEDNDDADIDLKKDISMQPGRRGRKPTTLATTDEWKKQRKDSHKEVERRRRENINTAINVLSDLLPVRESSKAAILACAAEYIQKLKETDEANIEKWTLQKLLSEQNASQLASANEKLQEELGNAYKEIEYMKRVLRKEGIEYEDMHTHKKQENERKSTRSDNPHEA
Setting: whole 60-bp probe, lowest competitor level
Sequence	fluorescence intensity [a.u.]
TATACTTTCCCTACGCACATGAAACGCATACCCCAA	72.5
GAAATGGCAATGAAAGCCGTGCAATCAGAAACAAAC	77.6
AAAGCGGTAATTTGACACGTGTTTTCACATATCTAT	2050
CGTCCTAGTGATTGGCGAGTGGGTGCCATGAGGAAG	85.9
CGGCCGGCCGAAAGCCATGCGGCCCAACAAGCGGCG	40.6

Mixed results
Molecule	target	assay	system	setting	how to read	measurement	result
PhoQ, residues 284 288 289 292 302 303 SASVAL	PhoP, residues 12 14 15 18 19 SYFRT (Escherichia coli, UniProt P23836)	Sort-seq, refers to: YFP reporter	E. coli	PhoQ-PhoP variant library, together with: 10 µM Mg2+	relative to: high Mg2+ state, higher = stronger signaling	fold induction	0.728

Repeated from above (study 1):
Sequence	log fluorescence [z-score]
TTAGATATCAGTTTCGATCAGTGCTAG	3.93
GACGGACTGGGGCCTGGGGACGTGCTA	-0.682
GGGGCTTGGGAGAGGCATCCGTGCTAG	-0.788
GACGGACTGGACAATGGGGACGTGCTA	-0.768
